# Results collected from several papers.
# Lines come from different studies, so protocols differ. Values joined by “and” are separate records of one study, mostly repeats; a detail may differ. Numbers after ± are the reported error.
# KAI2: KAI2 (Arabidopsis thaliana, UniProt Q9SZU7)
# UniProt Q9SZU7, sequence (whole entry, unmodified, looked up): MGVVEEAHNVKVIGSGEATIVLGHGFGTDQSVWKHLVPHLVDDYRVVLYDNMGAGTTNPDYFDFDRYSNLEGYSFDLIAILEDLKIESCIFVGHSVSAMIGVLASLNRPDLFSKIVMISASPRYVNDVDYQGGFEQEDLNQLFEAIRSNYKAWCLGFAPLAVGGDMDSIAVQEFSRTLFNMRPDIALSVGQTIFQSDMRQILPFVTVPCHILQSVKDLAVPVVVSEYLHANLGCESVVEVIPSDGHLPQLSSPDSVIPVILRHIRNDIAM
# FKBP5: Peptidyl-prolyl cis-trans isomerase FKBP5 (FKBP5, Homo sapiens, UniProt Q13451)
# UniProt Q13451, sequence (whole entry, looked up): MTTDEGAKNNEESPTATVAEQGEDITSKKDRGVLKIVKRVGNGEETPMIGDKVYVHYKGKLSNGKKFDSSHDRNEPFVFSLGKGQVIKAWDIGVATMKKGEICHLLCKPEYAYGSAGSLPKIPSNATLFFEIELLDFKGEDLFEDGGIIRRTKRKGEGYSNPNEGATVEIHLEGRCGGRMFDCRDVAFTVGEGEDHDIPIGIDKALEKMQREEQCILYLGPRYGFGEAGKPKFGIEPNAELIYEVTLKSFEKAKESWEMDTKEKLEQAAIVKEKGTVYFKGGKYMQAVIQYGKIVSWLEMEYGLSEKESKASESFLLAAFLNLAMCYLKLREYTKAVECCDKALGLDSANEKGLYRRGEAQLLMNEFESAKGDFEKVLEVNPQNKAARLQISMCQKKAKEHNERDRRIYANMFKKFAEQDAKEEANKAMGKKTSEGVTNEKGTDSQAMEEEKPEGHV
# CA2: Carbonic anhydrase 2 (CA2, Bos taurus, UniProt P00921)
# UniProt P00921, sequence (whole entry, looked up): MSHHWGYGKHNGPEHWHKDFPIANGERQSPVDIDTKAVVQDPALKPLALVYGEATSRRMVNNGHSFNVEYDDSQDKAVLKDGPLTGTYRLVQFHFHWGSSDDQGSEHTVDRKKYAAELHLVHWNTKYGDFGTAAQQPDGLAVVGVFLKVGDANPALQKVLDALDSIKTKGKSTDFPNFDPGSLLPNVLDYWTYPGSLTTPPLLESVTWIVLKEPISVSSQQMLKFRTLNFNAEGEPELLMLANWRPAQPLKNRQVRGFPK
# chemotaxis protein CheW: chemotaxis protein CheW (Vibrio campbellii, UniProt A0A0A3EMQ5)
# UniProt P31725, sequence (whole entry, looked up): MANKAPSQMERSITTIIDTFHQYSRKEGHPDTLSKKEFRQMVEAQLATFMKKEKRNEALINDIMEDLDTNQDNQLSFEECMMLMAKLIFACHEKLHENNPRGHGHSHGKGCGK
# UniProt P20782, sequence (whole entry, looked up): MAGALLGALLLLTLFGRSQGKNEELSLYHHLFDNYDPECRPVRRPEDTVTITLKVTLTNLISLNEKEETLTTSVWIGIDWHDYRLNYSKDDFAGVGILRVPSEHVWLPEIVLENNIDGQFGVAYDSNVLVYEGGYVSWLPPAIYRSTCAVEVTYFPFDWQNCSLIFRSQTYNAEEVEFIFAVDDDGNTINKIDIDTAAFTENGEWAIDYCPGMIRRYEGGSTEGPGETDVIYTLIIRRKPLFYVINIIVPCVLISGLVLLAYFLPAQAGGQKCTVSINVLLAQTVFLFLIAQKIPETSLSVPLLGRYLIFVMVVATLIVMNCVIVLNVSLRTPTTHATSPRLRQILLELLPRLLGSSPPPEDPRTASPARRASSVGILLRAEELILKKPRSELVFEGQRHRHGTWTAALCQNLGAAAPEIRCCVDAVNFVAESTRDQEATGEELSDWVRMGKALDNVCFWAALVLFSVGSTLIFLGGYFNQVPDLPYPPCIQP
# UniProt Q96SW2, sequence (whole entry, looked up): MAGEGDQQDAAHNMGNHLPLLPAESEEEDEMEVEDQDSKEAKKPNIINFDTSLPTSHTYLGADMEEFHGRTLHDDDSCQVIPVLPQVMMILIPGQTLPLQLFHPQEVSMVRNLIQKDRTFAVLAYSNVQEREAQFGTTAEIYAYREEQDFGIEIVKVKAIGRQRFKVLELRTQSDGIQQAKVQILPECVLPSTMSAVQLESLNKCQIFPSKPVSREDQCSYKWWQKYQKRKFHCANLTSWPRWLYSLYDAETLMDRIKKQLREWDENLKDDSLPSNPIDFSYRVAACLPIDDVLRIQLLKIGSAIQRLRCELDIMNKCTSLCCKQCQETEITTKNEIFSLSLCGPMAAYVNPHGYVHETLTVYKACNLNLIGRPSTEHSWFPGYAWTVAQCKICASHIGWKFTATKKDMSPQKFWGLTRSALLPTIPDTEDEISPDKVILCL
# UniProt P04756, sequence (whole entry, looked up): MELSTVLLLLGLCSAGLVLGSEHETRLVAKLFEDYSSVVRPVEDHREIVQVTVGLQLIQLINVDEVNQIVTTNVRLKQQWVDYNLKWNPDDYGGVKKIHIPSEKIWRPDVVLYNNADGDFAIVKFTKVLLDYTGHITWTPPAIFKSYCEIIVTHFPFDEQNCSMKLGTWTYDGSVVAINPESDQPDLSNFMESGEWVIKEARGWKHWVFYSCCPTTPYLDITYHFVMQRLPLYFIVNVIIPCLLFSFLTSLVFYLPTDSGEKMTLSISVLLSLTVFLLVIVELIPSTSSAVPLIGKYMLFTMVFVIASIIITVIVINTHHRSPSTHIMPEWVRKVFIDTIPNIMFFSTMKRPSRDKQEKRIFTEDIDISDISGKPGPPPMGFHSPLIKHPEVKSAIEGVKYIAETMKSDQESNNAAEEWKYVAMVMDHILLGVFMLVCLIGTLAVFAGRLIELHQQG
# UniProt Q91XB0, sequence (whole entry, looked up): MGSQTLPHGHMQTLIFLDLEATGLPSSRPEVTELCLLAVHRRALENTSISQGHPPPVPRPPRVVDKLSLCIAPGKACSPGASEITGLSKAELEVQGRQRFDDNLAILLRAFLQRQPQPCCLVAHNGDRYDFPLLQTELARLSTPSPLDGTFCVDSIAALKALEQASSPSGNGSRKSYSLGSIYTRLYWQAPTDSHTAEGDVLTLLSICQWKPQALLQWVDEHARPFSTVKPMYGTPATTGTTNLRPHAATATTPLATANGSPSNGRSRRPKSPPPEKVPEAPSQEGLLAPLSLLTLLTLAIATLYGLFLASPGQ
# UniProt Q70CQ1, sequence (whole entry, looked up): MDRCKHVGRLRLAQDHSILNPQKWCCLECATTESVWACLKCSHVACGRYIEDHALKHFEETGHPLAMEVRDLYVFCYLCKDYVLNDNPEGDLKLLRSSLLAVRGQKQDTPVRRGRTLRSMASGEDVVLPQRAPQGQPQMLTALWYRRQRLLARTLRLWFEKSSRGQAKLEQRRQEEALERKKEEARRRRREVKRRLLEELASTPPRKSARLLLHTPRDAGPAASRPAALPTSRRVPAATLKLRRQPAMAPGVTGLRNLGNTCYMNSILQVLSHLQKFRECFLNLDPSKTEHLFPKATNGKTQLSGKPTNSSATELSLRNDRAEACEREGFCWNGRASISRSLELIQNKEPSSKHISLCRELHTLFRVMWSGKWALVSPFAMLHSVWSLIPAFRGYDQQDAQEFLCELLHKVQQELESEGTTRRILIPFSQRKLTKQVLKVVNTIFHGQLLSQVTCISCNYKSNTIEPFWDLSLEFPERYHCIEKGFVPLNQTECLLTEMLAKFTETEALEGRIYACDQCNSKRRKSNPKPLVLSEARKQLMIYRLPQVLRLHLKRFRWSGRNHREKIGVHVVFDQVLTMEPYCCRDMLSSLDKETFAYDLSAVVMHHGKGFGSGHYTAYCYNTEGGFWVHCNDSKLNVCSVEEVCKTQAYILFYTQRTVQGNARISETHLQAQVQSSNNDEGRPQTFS
Compound,target,test,test system,conditions,Kd
O=C(N1CCc2ccccc21)n1ccnc1,KAI2,isothermal titration calorimetry,,,115 µM and 92.6 µM
C=CC1CN(Cc2ccccn2)C(=O)C2CCCC1N2S(=O)(=NC)c1cc(Cl)cc(Cl)c1 (centres unmarked),FKBP5,"ligand displacement, FP",,,> 40 µM
CC(C)(C)n1cc(CN(Cc2cn(CCOCCOCCOCCOCCOCCO)nn2)Cc2cn(C(C)(C)C)nn2)nn1,Cu(I),"binding, bicinchoninic acid competition",,"2000 µM, added: bicinchoninic acid 40 µM",0.000209 µM
O=C(N1CCc2ccccc21)n1nccn1,KAI2,isothermal titration calorimetry,,,358 µM and 227 µM and 362 µM
CC1(C)[C@@H]2CC[C@@]1(C)[C@@H](O)C2,"Protein S100-A9 (S100a9, Mus musculus, UniProt P31725)",,,,0.0033 µM
C=CC1CN(Cc2ccccn2)C(=O)C2CCCC1N2S(=O)(=NC1C=CCCC1)c1cc(Cl)cc(Cl)c1 (mixture of isomers),FKBP5,"ligand displacement, FP",,,> 40 µM
C[n+]1c(/C=C/c2ccc(N(c3ccccc3)c3ccccc3)cc2)cc(/C=C2\Sc3ccccc3N2CCCN2CCCC2)c2ccccc21,VEGF DNA,isothermal titration calorimetry,,"pH 7.4, 25 °C, 2% DMSO",38.6 µM
Cn1ncc2cc(-c3cncc(Cl)c3N3CCC4(CCNC4=O)CC3)ccc21,MED14 human,SILAC competition,LS174T-L5 lysate,,0.004 µM
CCN(CC)C(=O)c1cnn2ccc(C3CCN(S(=O)(=O)c4ccc(NC(C)=O)cc4)CC3)cc12,"Inactive tyrosine-protein kinase PRAG1 (PRAG1, Homo sapiens, UniProt Q86YV5)",binding,,,0.89 ± 0.07 µM
C=CC1CN(Cc2ccccn2)C(=O)C2CCCC1N2[S+]([O-])c1cc(Cl)cc(Cl)c1 (centres unmarked),FKBP5,"ligand displacement, FP",,,2.24 µM
CC(C)(C)n1cc(CN(Cc2cn(CC(=O)O)nn2)Cc2cn(C(C)(C)C)nn2)nn1,Cu(I),"binding, bicinchoninic acid competition",,"3000 µM, added: bicinchoninic acid 40 µM",0.000135 µM
C[N+](C)(C)CCOC(N)=O,"Chrnd/Chrna1/Chrne (Mus musculus, UniProt P02716+P04756+P20782)",single-channel kinetics,,wild-type receptor,410 µM
C=CC(=O)N1C[C@H](C)N(c2nc(OC[C@@]34CCCN3C[C@H](F)C4)nc3c(F)c(-c4ccc(F)c5sc(N)c(C#N)c45)c(C(F)(F)F)cc23)C[C@H]1C,"GTPase KRas, GppNHp-bound (KRAS, Homo sapiens, UniProt P01116, G13D)",,,,2.71 µM and 2.52 µM
CN(C)c1ccc(/C=C/c2cc(/C=C3\Sc4ccccc4N3CCCN3CCCC3)c3ccccc3[n+]2C)cc1,Pu27 DNA,isothermal titration calorimetry,,"pH 7.4, 25 °C, 2% DMSO",14.4 µM
C=CC1CN(Cc2ccccn2)C(=O)C2CCCC1N2S(=O)(=Nc1ccccc1)c1cc(Cl)cc(Cl)c1 (centres unmarked),FKBP5,"ligand displacement, FP",,,> 40 µM
CC[C@H](C)[C@H](NC(=O)[C@H](CC(=O)N[C@@H]1O[C@H](CO)[C@@H](O[C@@H]2O[C@H](CO)[C@@H](O[C@@H]3O[C@H](CO[C@H]4O[C@H](CO[C@H]5O[C@H](CO)[C@@H](O)[C@H](O)[C@@H]5O)[C@@H](O)[C@H](O[C@H]5O[C@H](CO)[C@@H](O)[C@H](O)[C@@H]5O)[C@@H]4O)[C@@H](O)[C@H](O[C@H]4O[C@H](CO)[C@@H](O)[C@H](O)[C@@H]4O)[C@@H]3O)[C@H](O)[C@H]2NC(C)=O)[C@H](O)[C@H]1NC(C)=O)NC(=O)[C@H](Cc1ccccc1)NC(=O)[C@H](CO)NC(=O)[C@H](CO)NC(=O)[C@H](Cc1c[nH]cn1)NC(=O)[C@H](CSCC(N)=O)NC(=O)[C@@H](NC(=O)CCCCCNC(=O)CCCC[C@@H]1SC[C@@H]2NC(=O)N[C@@H]21)C(C)C)C(=O)N[C@H](C(=O)N[C@H](C(=O)N[C@@H](CC(=O)O)C(=O)N[C@H](C(=O)N[C@@H](CCCCN)C(=O)N[C@@H](CC(=O)O)C(=O)N[C@@H](CCCNC(=N)N)C(=O)N[C@@H](CCCCN)C(=O)N[C@@H](CCC(N)=O)C(=O)N[C@@H](CCCCN)C(=O)N[C@H](C(=O)N[C@@H](CC(N)=O)C(=O)N[C@@H](C)C(=O)N[C@H](C(=O)N[C@@H](CSCC(N)=O)C(=O)N[C@@H](Cc1ccc(O)cc1)C(N)=O)[C@@H](C)O)C(C)C)C(C)C)[C@@H](C)O)[C@@H](C)O,PG9 Fab (human),"binding, SPR",,"25 °C, immobilized V1V2 glycopeptide",319 ± 9 µM
C=CC(=O)N1CC2(CCN(c3nc(OC4CCN(CCCOC)CC4)nc4c(OCC(F)(F)F)c(-c5c(C)ccc6[nH]ncc56)c(C5CC5)cc34)CC2)C1,"GTPase KRas, GDP-bound (KRAS, Homo sapiens, UniProt P01116)",,,,1.33 ± 0.22 µM
Nc1ncc(-c2nc(N3CCOCC3)nc(N3CCOCC3)n2)c(C(F)F)n1,"Serine/threonine-protein kinase mTOR (MTOR, Homo sapiens, UniProt P42345)","binding, competition with immobilised ligand",,,0.022 µM
Cc1cccc2c1N(C(=O)n1ccnc1)CC2,KAI2,isothermal titration calorimetry,,,14.7 µM and 15.2 µM
C=CCN=S(=O)(c1cc(Cl)cc(Cl)c1)N1C2CCCC1C(C=C)CN(Cc1ccccn1)C2=O (centres unmarked),FKBP5,"ligand displacement, FP",,,> 40 µM
NS(=O)(=O)c1ccc(N2C(=O)c3ccc(N4CCOCC4)cc3C2=O)cc1,CA2,binding,,,0.28 µM
CNC[C@H](O)c1ccc(O)c(O)c1,chemotaxis protein CheW,"binding, microscale thermophoresis",PBS with 0.05% Tween 20,"room temperature, His-tagged protein, labelled",0.68 ± 0.34 µM
O=C(O)c1cc(C(=O)CC(=O)c2cc(C(=O)O)c(O)c3ccccc23)c2ccccc2c1O,"Three-prime repair exonuclease 1 (Trex1, Mus musculus, UniProt Q91XB0)","binding, fluorescence",,,19.6 µM
Cn1c(=O)n(C2CCC(=O)NC2=O)c2ccc(C3CCN(CC(=O)Nc4cccc(CS(=O)(=O)N5CC[C@H](Nc6cccc(-c7sc(C(=O)O)c(OCC(=O)O)c7Cl)c6)CC5(C)C)c4)CC3)cc21 (some centres unmarked),"Protein cereblon, with DDB1 (CRBN, Homo sapiens, UniProt Q96SW2)",isothermal titration calorimetry,"PBS, 2% DMSO",20 °C,~2.2 µM
NS(=O)(=O)c1nnc(N2C(=O)c3cccc4c(N5CCOCC5)ccc(c34)C2=O)s1,CA2,binding,,,0.2 µM
Cc1c[nH]c2nccc(-c3ccc(C(=O)N[C@@H]4c5c(F)cc(C(F)F)cc5C[C@@H]4O)cn3)c12,"Serine/threonine-protein kinase LATS2 (LATS2, Homo sapiens, UniProt Q9NRM7)","binding, competition with immobilised ligand",,,0.14 µM
CN(C)c1ccc2c(c1)C(=O)N(CCc1ccc(S(N)(=O)=O)cc1)C2=O,CA2,binding,,,0.49 µM
Cc1cccc2c1N(C(=O)n1ccnn1)CC2,"KAI2 (Arabidopsis thaliana, UniProt Q9SZU7, S95C)",ITC,,S95C mutant,21.3 µM and 33.6 µM and 30.9 µM
C=CC(=O)N1CCCN(C(=O)c2cc(Sc3cnc(NC(=O)C4CC4)s3)c(C)cc2OC)C[C@H]1C,"Receptor tyrosine-protein kinase erbB-2 (ERBB2, Homo sapiens, UniProt P04626)","binding, competition with immobilised ligand",,,> 10 µM
O=C(N1CCc2ccccc21)n1ccnn1,KAI2,isothermal titration calorimetry,,,207 µM and 192 µM
CC(CCc1ccccc1)NCC(O)c1ccc(O)c(C(N)=O)c1 (centres unmarked),chemotaxis protein CheW,,,,0.64 ± 0.56 µM
CN(C)c1ccc2c(c1)C(=O)N(Cc1ccc(S(N)(=O)=O)cc1)C2=O,CA2,binding,,,0.13 µM
O=C(N1CCc2cccc([N+](=O)[O-])c21)n1ccnn1,KAI2,"binding, ITC",,,711 µM
CN(C)c1ccc2c(c1)C(=O)N(CCc1ccc(O)cc1)C2=O,CA2,binding,,,12.9 µM and ~13 µM
O=C(O)CCC(=O)c1cccc(NS(=O)(=O)c2c[nH]c3ncccc23)c1,"Ubiquitin carboxyl-terminal hydrolase 49, ZnF-UBD domain (USP49, Homo sapiens, UniProt Q70CQ1)",,,,> 1000 µM

# Some of these lines once more:
Compound,target,test,test system,conditions,Kd
CC(C)(C)n1cc(CN(Cc2cn(CCOCCOCCOCCOCCOCCO)nn2)Cc2cn(C(C)(C)C)nn2)nn1,Cu(I),"binding, bicinchoninic acid competition",,"2000 µM, added: bicinchoninic acid 40 µM",0.000209 µM
Nc1ncc(-c2nc(N3CCOCC3)nc(N3CCOCC3)n2)c(C(F)F)n1,"Serine/threonine-protein kinase mTOR (MTOR, Homo sapiens, UniProt P42345)","binding, competition with immobilised ligand",,,0.022 µM
Cc1c[nH]c2nccc(-c3ccc(C(=O)N[C@@H]4c5c(F)cc(C(F)F)cc5C[C@@H]4O)cn3)c12,"Serine/threonine-protein kinase LATS2 (LATS2, Homo sapiens, UniProt Q9NRM7)","binding, competition with immobilised ligand",,,0.14 µM
CC(C)(C)n1cc(CN(Cc2cn(CC(=O)O)nn2)Cc2cn(C(C)(C)C)nn2)nn1,Cu(I),"binding, bicinchoninic acid competition",,"3000 µM, added: bicinchoninic acid 40 µM",0.000135 µM
C=CC(=O)N1CCCN(C(=O)c2cc(Sc3cnc(NC(=O)C4CC4)s3)c(C)cc2OC)C[C@H]1C,"Receptor tyrosine-protein kinase erbB-2 (ERBB2, Homo sapiens, UniProt P04626)","binding, competition with immobilised ligand",,,> 10 µM
